Measured values pooled from the literature.
“And” joins repeats or separate records; there may be more than shown. ± gives the spread as reported.

Under “chronic toxic concentration”, `CC[C@H](C)[C@H](NC(=O)[C@H](CCCNC(=N)N)NC(=O)[C@H](CCCNC(=N)N)NC(=O)[C@H](CC(C)C)NC(=O)[C@@H](N)Cc1c[nH]c2ccccc12)C(=O)NCC(=O)N[C@@H](CCCCN)C(=O)NCC(=O)N[C@H](C(=O)N[C@@H](CCCCN)C(=O)N[C@H](C(=O)N[C@H](C(=O)NCC(=O)NCC(=O)N[C@@H](C)C(=O)N[C@@H](C)C(=O)N[C@@H](CC(C)C)C(=O)N[C@@H](CC(=O)O)C(=O)N[C@@H](Cc1c[nH]cn1)C(=O)N[C@@H](CC(C)C)C(N)=O)[C@@H](C)CC)[C@@H](C)CC)C(C)C` is recorded as 25 µM (zebrafish embryos 4 hpf, E3 medium; 24 h).
For `CCCCCCCCCCCCCCCC(=O)N[C@@H](CCC(=O)NCCCC[C@H](NC(=O)[C@H](CC(=O)O)NC(=O)[C@H](CO)NC(=O)[C@@H](NC(=O)[C@H](Cc1ccccc1)NC(=O)[C@@H](NC(=O)CNC(=O)[C@H](CCC(N)=O)NC(=O)[C@H](C)NC(=O)[C@@H](Cc1ccc(O)cc1)NC(C)=O)[C@@H](C)O)[C@@H](C)O)C(=O)N[C@@H](CO)C(=O)N[C@@H](CCCCN)C(=O)N[C@@H](Cc1ccc(O)cc1)C(=O)N[C@@H](CC(C)C)C(=O)N[C@@H](CC(=O)O)C(=O)N[C@@H](CCC(=O)O)C(=O)N[C@@H](CCCNC(=N)N)C(=O)N[C@@H](C)C(=O)N[C@@H](C)C(=O)N[C@@H](CCC(N)=O)C(=O)N[C@@H](CC(=O)O)C(=O)N[C@@H](Cc1ccccc1)C(=O)N[C@H](C(=O)N[C@@H](CCC(N)=O)C(=O)N[C@@H](Cc1c[nH]c2ccccc12)C(=O)N[C@@H](CC(C)C)C(=O)N[C@@H](CC(C)C)C(=O)N[C@@H](CCC(=O)O)C(=O)NCC(=O)NCC(=O)N1CCC[C@H]1C(=O)N[C@@H](CO)C(=O)N[C@@H](CO)C(=O)NCC(=O)N[C@@H](C)C(=O)N1CCC[C@H]1C(=O)N1CCC[C@H]1C(=O)N1CCC[C@H]1C(=O)N[C@@H](CO)C(N)=O)C(C)C)C(=O)O`, the Cmax was 76.3 ng/mL (male cynomolgus monkey, plasma; subcutaneous, 0.0211 mg/kg).
`CCC1=C(C)C2=C(c3ccc(C(=O)NCCNC(=O)c4ccc(P(=NC5=[O+][Ru-]([Cl])[n+]6ccccc65)(c5ccccc5)c5ccccc5)cc4)cc3)c3c(C)c(CC)c(C)n3[B-](F)(F)[N+]2=C1C.Cc1ccc(C(C)C)cc1.[Cl-]` has a logP of 3.21 ± 0.08 (LC-MS shake flask; 1-octanol/PBS).
Under “cystatin C level”, `N=C(N)NCCC[C@@H](NC(=O)[C@H](N)Cc1c[nH]c2ccccc12)C(=O)N[C@H](CCCCN)C(=O)N[C@H](Cc1c[nH]c2ccccc12)C(=O)N[C@H](CCCNC(=N)N)C(=O)N[C@H](CCCCN)C(=O)N[C@H](Cc1c[nH]c2ccccc12)C(=O)N[C@H](CCCNC(=N)N)C(=O)N[C@H](CCCCN)C(=O)N[C@H](Cc1c[nH]c2ccccc12)C(=O)N[C@H](CCCNC(=N)N)C(=O)N[C@H](CCCCN)C(N)=O` is recorded as 41.8 ng/mL (mouse, serum; 20 mg/kg).
Under “body weight change”, `COc1cnc2cccc(N3CCc4c(cc(Cn5ccnc5)cc4-c4cn(C)nc4C(F)(F)F)C3=O)c2c1` is recorded as 7.1% (CD-1 mouse; intraperitoneal, 50 mg/kg once daily, day 4, dose-escalation tolerability; baseline: day 1).
`CN1Cc2cc(Cl)ccc2-n2c(nnc2C2CCN(c3cccc([18F])n3)CC2)C1` has a tissue uptake of 9.55 ± 3.79 %ID/g (C57BL/6 mouse male, small intestine; intravenous, 3.7 MBq, 5 min).
`O=C(OCc1ccc(F)cc1)N(Cc1cn(-c2cc3ccc(O)cc3oc2=O)nn1)[c-]1cccc1.[Fe+2].c1cc[cH-]c1` has a solubility of > 200 µM (absorbance; RPMI medium with 5% FBS; 1% DMSO).
The bile concentration of `CC(C)=CCC/C(C)=C\CCn1cc(CC(C)(P(=O)(O)O)P(=O)(O)O)nn1` is reported as 172 ng/mL (CD-1 mice, pooled bile; intravenous, 0.3 mg/kg, 24 h).
`CC(C)[C@@H]1NC(=O)CNC(=O)[C@H](CC(N)=O)NC(=O)[C@H](CCCNC(=N)N)NC(=O)[C@H](Cc2ccc(O)cc2)NC(=O)[C@H](C(C)C)NC(=O)[C@@H](NC(=O)[C@@H](NC(=O)[C@H](CC(N)=O)NC(=O)[C@H](Cc2c[nH]c3ccccc23)NC(=O)[C@H](C)NC(=O)[C@H](Cc2ccccc2)NC(=O)CNC(=O)[C@H](CCCCN)NC(=O)[C@H](Cc2ccccc2)NC(=O)[C@H](Cc2ccccc2)NC(=O)[C@H](CCCCN)NC(=O)OCC2c3ccccc3-c3ccccc32)C(C)C)CSSC[C@@H](C(=O)N[C@@H](Cc2c[nH]cn2)C(=O)N[C@@H](CCCNC(=N)N)C(=O)N[C@@H](CCCNC(=N)N)C(=O)N[C@@H](C)C(=O)N[C@@H](CC(N)=O)C(N)=O)NC(=O)[C@H](C(C)C)NC(=O)[C@H](CCCNC(=N)N)NC1=O` gave a lymphocytes of 74.4 ± 1.2% (ICR mouse, blood; intramammary, 5 mg/kg, day 5, 3 d dosing).
The tumour-to-muscle ratio of `CSCC[C@H](NC(=O)CNC(=O)[C@H](CCCCN)NC(=O)[C@H](CC(C)C)NC(=O)[C@@H]1CCCN1C(=O)[C@H](CO)NC(=O)[C@H](Cc1c[nH]cn1)NC(=O)[C@H](Cc1c[nH]c2ccccc12)NC(=O)[C@H](CCCNC(=N)N)NC(=O)[C@H](CC(C)C)NC(=O)[C@H](CCCNC(=N)N)NC(=O)[C@H](Cc1c[nH]c2ccccc12)NC(=O)[C@H](CS)NC(=O)CCCCCNC(=O)CN1CCN(CC(=O)O)CCN(CC(=O)O)CCN(CC(=O)O)CC1)C(=O)O` [copper-64 labelled] is reported as 15.2 (BALB/c nude mouse, Huh-7 tumour, tumour and muscle; intravenous, 1.85 MBq, 6 h, ex vivo biodistribution; baseline: tumour over muscle).
For `COc1ccc(C([O-])=CC(=O)c2ccc(C(C)(C)C)cc2)cc1.[Cl-].[Ru+2].c1ccc(-c2cccc(-c3ccccn3)n2)nc1`, the viability was 100% (zebrafish larvae; 10 µM, 48 h, dark; baseline: normal).
With `COc1ccc(CNc2ccc3c(c2)S(=O)(=O)C=C3)cc1` the CD4+ cells was 13.9% (flow cytometry; male C57BL/6 mice, spleen; i.p., 20 mg/kg, 8 days; baseline: CD45+ cells).
With `O=C1NC2(CC2)COc2ncc(F)cc2[C@H]2COCCN2c2ccn3ncc1c3n2` the total cholesterol was 1.2 ± 0.2 mmol/L (Sprague-Dawley rat, male, serum; oral, 20 mg/kg/day, 4 weeks daily, end of recovery period).
`CSCC[C@H](N)C(=O)N[C@@H](C)C(=O)N[C@@H](CCCNC(=N)N)C(=O)N[C@@H](CCCNC(=N)N)C(=O)N[C@@H](CC(=O)O)C(=O)N[C@@H](CCCCN)C(=O)N[C@H](C(=O)N[C@@H](CC(=O)O)C(=O)N[C@@H](Cc1ccccc1)C(=O)N[C@@H](C)C(=O)N[C@@H](CCCNC(=N)N)C(=O)N[C@@H](CCCNC(=N)N)C(=O)N[C@@H](CCCNC(=N)N)C(=O)N[C@@H](CCCNC(=N)N)C(=O)NCCCCCC(=O)NCCCCC(NC(=O)CCCCCNC(=O)[C@H](CCCNC(=N)N)NC(=O)[C@H](CCCNC(=N)N)NC(=O)[C@H](CCCNC(=N)N)NC(=O)[C@H](CCCNC(=N)N)NC(=O)[C@H](C)NC(=O)[C@H](Cc1ccccc1)NC(=O)[C@H](CC(=O)O)NC(=O)[C@@H](NC(=O)[C@H](CCCCN)NC(=O)[C@H](CC(=O)O)NC(=O)[C@H](CCCNC(=N)N)NC(=O)[C@H](CCCNC(=N)N)NC(=O)[C@H](C)NC(=O)[C@@H](N)CCSC)[C@@H](C)O)C(=O)NCCCCC(NC(=O)C(CCCCNC(=O)CCCCCNC(=O)[C@H](CCCNC(=N)N)NC(=O)[C@H](CCCNC(=N)N)NC(=O)[C@H](CCCNC(=N)N)NC(=O)[C@H](CCCNC(=N)N)NC(=O)[C@H](C)NC(=O)[C@H](Cc1ccccc1)NC(=O)[C@H](CC(=O)O)NC(=O)[C@@H](NC(=O)[C@H](CCCCN)NC(=O)[C@H](CC(=O)O)NC(=O)[C@H](CCCNC(=N)N)NC(=O)[C@H](CCCNC(=N)N)NC(=O)[C@H](C)NC(=O)[C@@H](N)CCSC)[C@@H](C)O)NC(=O)CCCCCNC(=O)[C@H](CCCNC(=N)N)NC(=O)[C@H](CCCNC(=N)N)NC(=O)[C@H](CCCNC(=N)N)NC(=O)[C@H](CCCNC(=N)N)NC(=O)[C@H](C)NC(=O)[C@H](Cc1ccccc1)NC(=O)[C@H](CC(=O)O)NC(=O)[C@@H](NC(=O)[C@H](CCCCN)NC(=O)[C@H](CC(=O)O)NC(=O)[C@H](CCCNC(=N)N)NC(=O)[C@H](CCCNC(=N)N)NC(=O)[C@H](C)NC(=O)[C@@H](N)CCSC)[C@@H](C)O)C(N)=O)[C@@H](C)O` (some centres unmarked) gave a tissue distribution of 3.29% and 4.44% and 1.52% (C57BL/6 mouse female, colon; dose not given, 6 h; baseline: total).
`CC[C@H](C)[C@H](NC(=O)[C@H](CCCCN)NC(=O)CNC(=O)[C@H](CC(C)C)NC(=O)[C@H](Cc1ccccc1)NC(=O)[C@H](CCCCN)NC(=O)[C@H](CO)NC(=O)[C@H](Cc1ccccc1)NC(=O)[C@H](Cc1c[nH]c2ccccc12)NC(=O)[C@H](CCC(N)=O)NC(=O)[C@@H](NC(=O)[C@H](Cc1ccccc1)NC(=O)CCCCCNC(=O)CN1CCN(CC(=O)O)CCN(CC(=O)O)CCN(CC(=O)O)CC1)C(C)C)C(=O)N[C@@H](CCC(=O)O)C(=O)N1CCC[C@H]1C(=O)N[C@@H](CC(=O)O)C(=O)N[C@H](C(=O)N[C@@H](CO)C(=O)N[C@@H](CCC(N)=O)C(=O)N[C@H](C(=O)N[C@@H](CCC(N)=O)C(=O)N[C@@H](CC(=O)O)C(=O)N1CCC[C@H]1C(=O)N[C@@H](CC(N)=O)C(=O)N[C@@H](CC(=O)O)C(=O)N[C@@H](CCC(N)=O)C(=O)N[C@@H](Cc1ccc(O)cc1)C(=O)N[C@@H](CCC(=O)O)C(=O)N1CCC[C@H]1C(=O)N[C@@H](Cc1ccccc1)C(=O)O)C(C)C)C(C)C` [copper-64 labelled] gave an SUVmean of 0.86 SUV (dynamic PET; mouse both sexes, CT26 tumour, untreated, tumour; intravenous, 100 µCi/mouse, 1050 s).
`CC(C)Oc1c(NC(=O)c2ccc(NC(=O)[C@H](CC(N)=O)NC(=O)c3ccc(/N=N/c4ccccc4)cc3)cc2)ccc(C(=O)Nc2ccc(C(=O)O)cc2)c1O` has a thermal half-life of 6.2 h (absorbance; DMSO; 40 °C, PSS to ground state relaxation).
With `COC(=O)[C@H]1[C@@H](c2ccc(Cl)c(Cl)c2)C[C@@H]2CC[C@H]1N2CCCc1c2ccccc2cc2ccccc12` the pKa was 5.8 (fluorometric titration; 1 µM, 10% DMSO).
